Assay results collected from several papers.
Each numbered part is a random draw from the data of one study; scales do not carry over between parts. Changes are numbered by the printed parent chain.
UniProt Q59H18, sequence (whole entry, looked up): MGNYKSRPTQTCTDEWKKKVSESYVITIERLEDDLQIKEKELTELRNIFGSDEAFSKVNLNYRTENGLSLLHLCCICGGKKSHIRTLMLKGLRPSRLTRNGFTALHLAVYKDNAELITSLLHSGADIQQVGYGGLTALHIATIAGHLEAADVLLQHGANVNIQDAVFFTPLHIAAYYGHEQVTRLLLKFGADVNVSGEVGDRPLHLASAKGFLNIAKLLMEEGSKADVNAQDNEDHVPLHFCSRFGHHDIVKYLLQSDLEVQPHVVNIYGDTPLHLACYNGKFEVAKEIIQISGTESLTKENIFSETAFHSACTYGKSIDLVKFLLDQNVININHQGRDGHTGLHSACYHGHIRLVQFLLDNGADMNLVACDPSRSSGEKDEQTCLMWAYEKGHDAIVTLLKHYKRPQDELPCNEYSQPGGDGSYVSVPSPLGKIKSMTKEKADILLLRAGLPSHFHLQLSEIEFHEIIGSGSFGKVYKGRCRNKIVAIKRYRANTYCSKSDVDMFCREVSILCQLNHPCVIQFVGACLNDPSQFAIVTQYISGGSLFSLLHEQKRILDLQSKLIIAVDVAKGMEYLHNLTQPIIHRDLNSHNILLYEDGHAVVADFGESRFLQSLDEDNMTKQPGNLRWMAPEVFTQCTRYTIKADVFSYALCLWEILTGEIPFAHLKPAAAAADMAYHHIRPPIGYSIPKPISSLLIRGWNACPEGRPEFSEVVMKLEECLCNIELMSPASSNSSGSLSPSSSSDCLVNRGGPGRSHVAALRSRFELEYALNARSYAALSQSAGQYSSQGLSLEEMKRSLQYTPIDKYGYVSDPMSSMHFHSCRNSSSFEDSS
UniProt O94921, sequence (whole entry, looked up): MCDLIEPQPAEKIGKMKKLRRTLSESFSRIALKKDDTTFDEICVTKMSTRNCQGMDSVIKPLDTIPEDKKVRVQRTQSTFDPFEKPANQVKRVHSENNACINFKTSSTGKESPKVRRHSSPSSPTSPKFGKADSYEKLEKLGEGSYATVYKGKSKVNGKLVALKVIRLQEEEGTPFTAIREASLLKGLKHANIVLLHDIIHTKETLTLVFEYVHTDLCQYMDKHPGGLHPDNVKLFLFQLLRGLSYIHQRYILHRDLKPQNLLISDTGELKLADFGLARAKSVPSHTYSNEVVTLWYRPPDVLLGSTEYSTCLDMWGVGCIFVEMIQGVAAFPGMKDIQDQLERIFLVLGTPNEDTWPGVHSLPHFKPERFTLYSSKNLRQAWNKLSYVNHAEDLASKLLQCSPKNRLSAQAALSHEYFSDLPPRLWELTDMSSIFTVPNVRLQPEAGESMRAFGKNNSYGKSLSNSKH
UniProt Q9HBY8, sequence (whole entry, looked up): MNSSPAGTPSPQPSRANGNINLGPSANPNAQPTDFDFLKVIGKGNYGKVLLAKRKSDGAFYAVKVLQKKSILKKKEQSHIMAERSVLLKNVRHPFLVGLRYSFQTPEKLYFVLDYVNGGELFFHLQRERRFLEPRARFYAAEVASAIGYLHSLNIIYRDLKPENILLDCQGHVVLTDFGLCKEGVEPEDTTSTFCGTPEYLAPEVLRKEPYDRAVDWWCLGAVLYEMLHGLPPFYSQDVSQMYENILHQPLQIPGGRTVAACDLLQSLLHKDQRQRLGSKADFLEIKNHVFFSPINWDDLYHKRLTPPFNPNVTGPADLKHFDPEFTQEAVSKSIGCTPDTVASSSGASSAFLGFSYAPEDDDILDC
UniProt Q9HC98, sequence (whole entry, looked up): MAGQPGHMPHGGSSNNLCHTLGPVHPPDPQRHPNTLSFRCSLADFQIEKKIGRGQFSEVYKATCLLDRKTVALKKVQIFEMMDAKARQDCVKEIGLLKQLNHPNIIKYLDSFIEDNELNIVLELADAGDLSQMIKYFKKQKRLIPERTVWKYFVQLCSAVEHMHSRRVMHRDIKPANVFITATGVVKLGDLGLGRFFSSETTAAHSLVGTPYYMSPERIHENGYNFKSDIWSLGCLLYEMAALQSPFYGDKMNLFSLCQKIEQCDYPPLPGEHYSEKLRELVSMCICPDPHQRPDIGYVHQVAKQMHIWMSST
UniProt Q13557, sequence (whole entry, looked up): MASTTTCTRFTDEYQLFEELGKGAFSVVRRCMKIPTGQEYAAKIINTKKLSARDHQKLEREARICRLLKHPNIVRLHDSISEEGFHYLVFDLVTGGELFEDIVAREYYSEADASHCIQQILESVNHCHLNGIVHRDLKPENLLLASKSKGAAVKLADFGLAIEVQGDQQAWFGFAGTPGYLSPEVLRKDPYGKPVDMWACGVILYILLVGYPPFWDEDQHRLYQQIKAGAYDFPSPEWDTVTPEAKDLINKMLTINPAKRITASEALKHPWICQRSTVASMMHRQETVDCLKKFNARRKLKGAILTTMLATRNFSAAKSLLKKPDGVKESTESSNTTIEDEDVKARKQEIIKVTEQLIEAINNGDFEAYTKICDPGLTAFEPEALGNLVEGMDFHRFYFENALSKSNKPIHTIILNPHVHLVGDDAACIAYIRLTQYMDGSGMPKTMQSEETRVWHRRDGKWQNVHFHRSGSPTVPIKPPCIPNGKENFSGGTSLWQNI

Set 1
Target: Mitogen-activated protein kinase 10 (MAPK10, Homo sapiens, UniProt P53779)
UniProt P53779, sequence (whole entry, looked up): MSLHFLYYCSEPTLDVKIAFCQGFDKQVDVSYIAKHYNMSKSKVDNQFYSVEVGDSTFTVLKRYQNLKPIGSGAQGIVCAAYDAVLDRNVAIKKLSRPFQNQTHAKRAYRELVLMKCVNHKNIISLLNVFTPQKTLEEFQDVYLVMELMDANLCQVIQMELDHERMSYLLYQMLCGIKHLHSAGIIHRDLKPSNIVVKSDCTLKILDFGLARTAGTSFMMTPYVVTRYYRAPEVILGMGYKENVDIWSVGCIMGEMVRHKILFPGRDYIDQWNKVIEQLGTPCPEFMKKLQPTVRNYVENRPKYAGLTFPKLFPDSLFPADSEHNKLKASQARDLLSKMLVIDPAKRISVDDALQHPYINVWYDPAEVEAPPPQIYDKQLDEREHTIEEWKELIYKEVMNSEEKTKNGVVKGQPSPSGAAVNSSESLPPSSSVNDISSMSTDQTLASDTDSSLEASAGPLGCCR
Observed: enzyme activity
Action: inhibitor
Tested at: 0.5 µM
Relative to: control
Structure (SMILES) | remaining activity [%]
Nc1nc(Nc2ccc(S(N)(=O)=O)cc2)nn1C(=S)Nc1c(F)cccc1F | 105
COc1ccc2c(c1)c(C1=C(c3c[nH]c4ccccc34)C(=O)NC1=O)cn2CCCN(C)C | 88.8
c1ccc(-c2n[nH]c3c2oc2ccccc23)cc1 | 93.4
O=Nc1c(-c2c(O)[nH]c3cc(Br)ccc23)[nH]c2ccccc12 | 97.9
O=c1cc(N2CCOCC2)oc2c(-c3ccccc3)cccc12 | 87.1
N#Cc1cnc2cnc(NCc3cccnc3)cc2c1Nc1ccc(F)c(Cl)c1 | 95
COc1cc2c(Nc3ccc(Br)cc3F)ncnc2cc1OCC1CCN(C)CC1 | 96.9
CCCCc1c(-c2ccc(OC)cc2)[nH]c2nccnc12 | 97.2
c1cc(-c2cnn3cc(-c4ccc(OCCN5CCCCC5)cc4)cnc23)ccn1 | 104
O=C1Nc2ccc(Br)cc2/C1=C/c1cc2c([nH]1)CCCC2 | 98.7
N#C/C(=C(/N)SC1C=CC=CC1)c1cccc(C(O)c2ccncc2)c1 (stereo not shown) | 94.2
CN(C)S(=O)(=O)c1ccc2c(c1)/C(=C/c1cc3c([nH]1)CCCC3)C(=O)N2 | 105
O=C1Cc2c([nH]c3ccc(Br)cc23)-c2ccccc2N1 | 89.6
O=C(O)/C=C/c1cc(Br)c(Br)c(Br)c1Br | 96.3
COc1ccc(COc2ccc(Cc3cnc(N)nc3N)cc2OC)cc1 | 84.4
c1ccc2c(-c3ccncc3)c[nH]c2c1 | 102

Set 2
SMILES: CN(C)c1ncnc(-c2ccc3nc(Nc4cc(CN5CCN(C(=O)CC(F)(F)F)CC5)ccn4)[nH]c3c2)c1Cl
Observed: cell-free assay
Method: competition with immobilised ligand
Tested at: 1 µM
target | remaining binding [%]
NEK6 (Homo sapiens, UniProt Q9HC98) | 98
CDK14 (Homo sapiens, UniProt O94921) | 100
SGK2 (Homo sapiens, UniProt Q9HBY8) | 43
TNNI3K (Homo sapiens, UniProt Q59H18) | 50
CAMK2D (Homo sapiens, UniProt Q13557) | 90

Set 3
Target: PABPC1L2, full length, GST fusion (mouse, UniProt A0ABA7IW68)
Method: RNAcompete
Molecule type: RNA
Medium: in vitro
Tested at: 20 nM
Setting: 7-mer, probes averaged, single round
Relative to: mean of 7-mers
Reading: higher = stronger binding
Construct (chain): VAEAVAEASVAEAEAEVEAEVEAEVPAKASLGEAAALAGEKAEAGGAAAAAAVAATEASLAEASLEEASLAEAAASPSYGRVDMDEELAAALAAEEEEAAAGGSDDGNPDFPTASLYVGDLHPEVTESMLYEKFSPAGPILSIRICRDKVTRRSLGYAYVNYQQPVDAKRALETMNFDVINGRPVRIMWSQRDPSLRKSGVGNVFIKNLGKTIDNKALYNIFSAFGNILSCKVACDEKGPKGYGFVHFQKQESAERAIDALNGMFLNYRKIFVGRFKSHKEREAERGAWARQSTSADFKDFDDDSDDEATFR
Sequence | 7-mer Z-score
UUGGUUA | -0.298
UGUGGGA | 0.167
AAAGGCU | 0.742
CUUGUAG | -0.269
UCCCGGG | -0.316
CCCUGAC | -0.266
AACGGGC | 0.269
CCUGUUA | -0.347

Set 4
Target: ABI1, truncated, D143A, DHFR fusion (Arabidopsis thaliana)
Method: DHFR PCA, deep sequencing
Medium: yeast
Setting: methotrexate growth selection, single substitutions
Added: (+)-ABA 0.39 µM
Relative to: wild-type fitted maximum
Reading: higher = stronger binding
Starting sequence: PYL1, truncated, DHFR fusion (Arabidopsis thaliana); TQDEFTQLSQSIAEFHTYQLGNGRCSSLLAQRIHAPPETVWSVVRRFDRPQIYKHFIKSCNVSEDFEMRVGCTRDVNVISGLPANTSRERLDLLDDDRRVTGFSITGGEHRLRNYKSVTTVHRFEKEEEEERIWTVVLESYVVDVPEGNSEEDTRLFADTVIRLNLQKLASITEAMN; partner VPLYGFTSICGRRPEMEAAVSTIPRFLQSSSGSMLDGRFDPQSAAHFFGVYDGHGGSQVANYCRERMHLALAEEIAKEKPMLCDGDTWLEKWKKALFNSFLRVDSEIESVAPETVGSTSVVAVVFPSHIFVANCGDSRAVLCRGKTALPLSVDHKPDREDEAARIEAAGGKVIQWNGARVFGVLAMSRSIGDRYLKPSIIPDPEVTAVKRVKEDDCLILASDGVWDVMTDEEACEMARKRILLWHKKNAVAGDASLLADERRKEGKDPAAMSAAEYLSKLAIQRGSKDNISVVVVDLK
Change | relative binding score
D65S | 22.7%
Y115K | -3.24%
E67P | 11.6%
T173R | -14.8%
R123N | 28.6%
C72I | 12.1%
E139V | 30.9%
I52T | 53.3%

A few entries again (set 1):
Structure (SMILES) | remaining activity [%]
O=Nc1c(-c2c(O)[nH]c3cc(Br)ccc23)[nH]c2ccccc12 | 97.9
N#Cc1cnc2cnc(NCc3cccnc3)cc2c1Nc1ccc(F)c(Cl)c1 | 95
c1cc(-c2cnn3cc(-c4ccc(OCCN5CCCCC5)cc4)cnc23)ccn1 | 104
c1ccc2c(-c3ccncc3)c[nH]c2c1 | 102
CCCCc1c(-c2ccc(OC)cc2)[nH]c2nccnc12 | 97.2
